Assay results of several laboratories.
Parts stem from different laboratories: compare values within a part only.
Chain of UniProt P50613 (whole entry, looked up): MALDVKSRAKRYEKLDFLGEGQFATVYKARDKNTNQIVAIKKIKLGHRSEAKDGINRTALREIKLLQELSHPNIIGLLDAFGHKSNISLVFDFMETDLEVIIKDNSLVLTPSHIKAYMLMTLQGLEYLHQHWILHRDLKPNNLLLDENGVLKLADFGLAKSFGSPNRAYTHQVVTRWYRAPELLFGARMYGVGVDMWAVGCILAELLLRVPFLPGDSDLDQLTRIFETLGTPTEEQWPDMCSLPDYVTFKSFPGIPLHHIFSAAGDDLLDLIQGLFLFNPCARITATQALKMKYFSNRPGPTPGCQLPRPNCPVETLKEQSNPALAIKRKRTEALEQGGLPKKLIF
Chain of UniProt P78368 (whole entry, looked up): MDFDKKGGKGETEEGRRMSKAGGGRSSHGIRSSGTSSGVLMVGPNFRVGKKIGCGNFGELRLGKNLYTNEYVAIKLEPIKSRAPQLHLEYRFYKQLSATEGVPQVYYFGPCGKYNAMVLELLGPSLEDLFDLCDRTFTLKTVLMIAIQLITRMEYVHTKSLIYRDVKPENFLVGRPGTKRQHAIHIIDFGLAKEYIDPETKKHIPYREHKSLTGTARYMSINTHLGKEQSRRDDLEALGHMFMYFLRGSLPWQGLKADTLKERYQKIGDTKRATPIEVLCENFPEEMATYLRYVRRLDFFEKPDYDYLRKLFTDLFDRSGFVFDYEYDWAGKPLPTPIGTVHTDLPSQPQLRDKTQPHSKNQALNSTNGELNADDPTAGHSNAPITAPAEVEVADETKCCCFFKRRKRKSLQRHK
Chain of UniProt P50750 (whole entry, looked up): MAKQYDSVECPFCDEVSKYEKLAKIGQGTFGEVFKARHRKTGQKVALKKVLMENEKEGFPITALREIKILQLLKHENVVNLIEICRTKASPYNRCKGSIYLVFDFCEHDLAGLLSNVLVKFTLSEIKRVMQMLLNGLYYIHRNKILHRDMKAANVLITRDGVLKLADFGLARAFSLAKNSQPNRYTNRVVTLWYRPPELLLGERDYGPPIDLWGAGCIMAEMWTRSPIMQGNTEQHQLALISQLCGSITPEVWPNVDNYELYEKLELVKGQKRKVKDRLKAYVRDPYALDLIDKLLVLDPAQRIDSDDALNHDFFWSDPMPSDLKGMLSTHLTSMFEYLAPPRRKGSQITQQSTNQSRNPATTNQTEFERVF
Chain of UniProt P23458 (whole entry, looked up): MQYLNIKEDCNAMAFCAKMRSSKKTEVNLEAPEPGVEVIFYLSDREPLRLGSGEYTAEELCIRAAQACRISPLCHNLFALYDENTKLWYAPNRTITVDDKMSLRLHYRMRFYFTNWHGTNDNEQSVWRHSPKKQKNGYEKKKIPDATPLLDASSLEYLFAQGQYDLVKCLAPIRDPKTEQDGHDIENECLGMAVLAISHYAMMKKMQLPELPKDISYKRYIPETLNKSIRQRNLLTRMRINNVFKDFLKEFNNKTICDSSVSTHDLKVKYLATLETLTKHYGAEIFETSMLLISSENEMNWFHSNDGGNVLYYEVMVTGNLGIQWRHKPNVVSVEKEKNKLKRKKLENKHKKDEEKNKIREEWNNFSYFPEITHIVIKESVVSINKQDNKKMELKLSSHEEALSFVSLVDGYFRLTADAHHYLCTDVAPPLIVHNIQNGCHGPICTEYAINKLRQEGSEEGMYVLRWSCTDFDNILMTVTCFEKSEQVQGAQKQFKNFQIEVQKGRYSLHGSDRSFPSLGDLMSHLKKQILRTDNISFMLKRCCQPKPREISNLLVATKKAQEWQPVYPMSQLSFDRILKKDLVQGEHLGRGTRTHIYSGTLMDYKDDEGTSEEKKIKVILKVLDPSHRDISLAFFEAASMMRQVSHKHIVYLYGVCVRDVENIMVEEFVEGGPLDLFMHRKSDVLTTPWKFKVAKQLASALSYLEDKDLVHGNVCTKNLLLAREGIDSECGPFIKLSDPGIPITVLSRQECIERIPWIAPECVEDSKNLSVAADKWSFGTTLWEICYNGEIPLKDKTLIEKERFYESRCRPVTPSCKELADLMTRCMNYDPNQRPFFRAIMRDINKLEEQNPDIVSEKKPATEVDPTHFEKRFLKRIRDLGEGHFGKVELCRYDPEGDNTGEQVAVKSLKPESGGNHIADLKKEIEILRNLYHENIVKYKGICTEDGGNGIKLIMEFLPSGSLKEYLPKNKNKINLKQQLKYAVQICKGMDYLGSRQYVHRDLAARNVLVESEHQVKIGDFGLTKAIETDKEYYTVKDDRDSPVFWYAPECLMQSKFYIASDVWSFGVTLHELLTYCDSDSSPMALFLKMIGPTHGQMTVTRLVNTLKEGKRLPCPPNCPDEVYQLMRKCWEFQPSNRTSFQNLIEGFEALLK
Chain of UniProt P42336 (whole entry, unmodified, looked up): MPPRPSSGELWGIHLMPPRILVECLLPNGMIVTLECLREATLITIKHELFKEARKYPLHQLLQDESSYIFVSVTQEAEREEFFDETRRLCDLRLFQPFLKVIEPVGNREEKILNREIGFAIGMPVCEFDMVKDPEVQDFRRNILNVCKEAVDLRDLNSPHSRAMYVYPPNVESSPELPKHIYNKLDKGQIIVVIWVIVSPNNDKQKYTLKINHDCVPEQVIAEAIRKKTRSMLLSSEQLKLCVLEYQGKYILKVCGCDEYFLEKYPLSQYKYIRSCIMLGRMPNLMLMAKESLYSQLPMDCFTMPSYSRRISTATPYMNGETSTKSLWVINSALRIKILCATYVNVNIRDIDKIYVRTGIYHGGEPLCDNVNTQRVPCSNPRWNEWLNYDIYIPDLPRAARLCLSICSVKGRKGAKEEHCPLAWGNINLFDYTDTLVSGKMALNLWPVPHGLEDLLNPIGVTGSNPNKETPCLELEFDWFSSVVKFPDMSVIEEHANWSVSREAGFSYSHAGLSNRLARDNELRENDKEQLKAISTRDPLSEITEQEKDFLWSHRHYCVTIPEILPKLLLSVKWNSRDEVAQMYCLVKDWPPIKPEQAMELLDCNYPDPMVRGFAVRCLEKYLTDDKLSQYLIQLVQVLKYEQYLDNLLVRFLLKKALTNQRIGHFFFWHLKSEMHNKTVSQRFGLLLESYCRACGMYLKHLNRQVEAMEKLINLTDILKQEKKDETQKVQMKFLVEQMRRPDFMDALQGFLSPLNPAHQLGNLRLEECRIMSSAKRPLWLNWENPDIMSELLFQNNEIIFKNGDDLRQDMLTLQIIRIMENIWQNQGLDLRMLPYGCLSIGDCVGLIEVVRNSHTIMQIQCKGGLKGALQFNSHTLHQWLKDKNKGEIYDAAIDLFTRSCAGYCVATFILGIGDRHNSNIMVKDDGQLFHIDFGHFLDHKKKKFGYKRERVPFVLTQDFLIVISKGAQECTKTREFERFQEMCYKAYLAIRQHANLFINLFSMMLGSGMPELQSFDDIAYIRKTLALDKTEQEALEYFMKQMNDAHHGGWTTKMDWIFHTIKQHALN
Chain of UniProt Q99640 (whole entry, looked up): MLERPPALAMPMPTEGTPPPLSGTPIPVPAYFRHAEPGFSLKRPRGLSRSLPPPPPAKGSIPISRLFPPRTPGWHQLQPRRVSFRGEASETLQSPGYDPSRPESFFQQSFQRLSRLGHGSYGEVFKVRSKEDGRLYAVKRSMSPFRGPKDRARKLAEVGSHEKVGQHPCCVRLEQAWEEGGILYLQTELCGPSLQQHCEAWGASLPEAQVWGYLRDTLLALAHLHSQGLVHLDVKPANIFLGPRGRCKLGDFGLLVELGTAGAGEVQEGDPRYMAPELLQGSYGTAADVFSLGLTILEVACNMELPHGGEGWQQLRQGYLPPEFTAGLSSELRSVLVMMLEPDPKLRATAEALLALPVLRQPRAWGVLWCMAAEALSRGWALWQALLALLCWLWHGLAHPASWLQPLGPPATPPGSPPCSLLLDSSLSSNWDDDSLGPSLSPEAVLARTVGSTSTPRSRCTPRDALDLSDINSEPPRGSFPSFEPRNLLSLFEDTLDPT

Study 1
Host: human
Sample: microsomes or S9
Tested at: 2 µM
Time: 0.5 h
SMILES | remaining compound [%]
Nc1nnc2sc3cc(Br)ccc3n12 | 0
CC(=O)Nc1nc(-c2cnc3ccc(Cl)cn23)c(C)s1 | 1.1
O=C(CC(c1ccccc1)c1ccccc1)N1CCN(c2ccccn2)CC1 | 10.3
Cc1cc2c(cc1C)OC(c1nc(N(C)C)no1)C2 (stereo not shown) | 10.8
CCN(CC)S(=O)(=O)c1ccc(C)c(N2C(=O)CC(C#N)=C2N)c1 | 25.8
CCc1noc(CC)c1CC(=O)NCC1(CC)CCCCC1 | 0.0613
Cc1nc(NC(=O)CCCCF)c(N)cc1Br | > 99.9
COc1ccc(OCC(=O)N(Cc2ccc(Br)o2)C2CCS(=O)(=O)C2)cc1 (stereo not shown) | > 100
O=C(Nc1ccc(Cl)cn1)c1c2c(nc3ccccc13)C(=O)N(C1CCCCC1)C2 | 75.5
COc1cc2ccccc2cc1C(=O)N(CCN(C)C)c1nc2c(F)cccc2s1 | 56.3
Cc1n[nH]c(=O)c(C(=O)NC2CCc3nc(C(C)(C)C)cn3C2)c1C (stereo not shown) | 83.6
O=C(NC1CCCC1)C1(Cc2ccccn2)CCOCC1 | 87.8
Oc1cc(O)c2c(c1)O[C@H](c1ccc(O)c(O)c1)[C@H](O)[C@H]2c1c(O)cc(O)c2c1O[C@H](c1ccc(O)c(O)c1)[C@H](O)C2 | 81.1
CC[C@H](C)[C@@H](CO)NC(=O)c1cc(C)nc(C)c1 | 94.2
Cc1c(C(=O)OC(C)C)sc2ncnc(N3CCCCC3)c12 | 0.14
c1ccc2c(c1)oc1c(-c3cn(C[C@H]4CCCN4)nn3)cccc12 | > 100
CCOC(=O)C1SC2(C(F)(F)F)CC1(O)C(C)(C)CO2 (stereo not shown) | 91
CC(=O)CC(CC(C)C)n1nnc(-c2ccccc2)n1 (stereo not shown) | 8.46
CCCC(NNC(=O)c1cnccn1)C(=O)OC (stereo not shown) | 0.836
CCCc1noc2nc(CC)cc(C(=O)N(C)Cc3ncon3)c12 | 85.6
Cc1ccc(O[C@H]2COCC[C@H]2NC(=O)c2cnn[nH]2)cn1 | 86

Study 2
Target: Protein kinase C beta type, isoform beta-II (PRKCB, Homo sapiens, UniProt P05771)
Chain of UniProt P05771 (whole entry, looked up): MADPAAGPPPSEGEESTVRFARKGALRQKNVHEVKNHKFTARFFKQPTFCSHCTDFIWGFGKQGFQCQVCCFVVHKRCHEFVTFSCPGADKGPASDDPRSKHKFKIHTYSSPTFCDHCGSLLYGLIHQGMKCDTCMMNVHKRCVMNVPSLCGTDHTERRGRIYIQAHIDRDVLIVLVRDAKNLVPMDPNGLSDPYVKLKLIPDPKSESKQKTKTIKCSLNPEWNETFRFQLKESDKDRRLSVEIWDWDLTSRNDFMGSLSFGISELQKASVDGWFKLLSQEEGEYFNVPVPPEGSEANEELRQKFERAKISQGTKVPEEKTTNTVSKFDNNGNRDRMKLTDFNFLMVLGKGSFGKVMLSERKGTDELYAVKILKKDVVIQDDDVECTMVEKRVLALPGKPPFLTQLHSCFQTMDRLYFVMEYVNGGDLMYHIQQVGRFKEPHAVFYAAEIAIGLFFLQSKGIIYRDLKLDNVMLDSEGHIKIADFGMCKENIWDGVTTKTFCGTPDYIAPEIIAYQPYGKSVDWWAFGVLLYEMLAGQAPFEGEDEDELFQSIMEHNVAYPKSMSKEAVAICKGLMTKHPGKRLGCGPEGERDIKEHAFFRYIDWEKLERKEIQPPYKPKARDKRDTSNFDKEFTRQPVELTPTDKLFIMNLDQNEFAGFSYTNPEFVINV
Observed: enzyme activity
Mode: inhibitor
Tested at: 0.5 µM
Relative to: control
Structure (SMILES) | remaining activity [%]
CCN1/C(=C/C(C)=O)Sc2ccc(OC)cc21 | 99.3
COc1ccc(-c2cnc3c(-c4ccsc4)cnn3c2)cc1 | 94.3
O=C1NC(=O)/C(=C/c2ccc3nccnc3c2)S1 | 103
C[S+]([O-])c1ccc(-c2nc(-c3ccncc3)c(-c3ccc(F)cc3)[nH]2)cc1 (stereo not shown) | 97.9
CC(=O)O/N=C1/C(c2c(O)[nH]c3cc(Br)ccc23)=Nc2ccccc21 | 101
Cn1cnc2cc3c(Nc4cccc(Br)c4)ncnc3cc21 | 95.4
COc1ccc(Cl)cc1NC(=O)Nc1cc(C)nc2ccccc12 | 109
CS(=O)(=O)CCNCc1ccc(-c2ccc3ncnc(Nc4ccc(OCc5cccc(F)c5)c(Cl)c4)c3c2)o1 | 99.8
CC(C)[C@H](CO)Nc1nc(Nc2cccc(Cl)c2)c2ncn(C(C)C)c2n1 | 88.6
Cc1nc(Nc2ncc(C(=O)Nc3c(C)cccc3Cl)s2)cc(N2CCN(CCO)CC2)n1 | 88.9
CCC(=O)Nc1ccc2ncnc(Nc3cccc(Br)c3)c2c1 | 101
CC(C)c1nn(-c2c(Cl)cccc2Cl)c2nc(Cc3ccc(OCCO)cc3)[nH]c(=O)c12 | 96.7
Cc1ccc(NC(=O)c2ccc(CN3CCN(C)CC3)cc2)cc1Nc1nccc(-c2cccnc2)n1 | 102
COc1cc2ncnc(Nc3ccc(OCc4ccccc4)cc3)c2cc1OC | 106
COc1cc2ncnc(N3CCN(C(=O)Nc4ccc(Oc5ccccc5)cc4)CC3)c2cc1OC | 102
COc1cc2ncc(-c3ccccc3)nc2cc1OC | 88.8
CN(C)CCCn1cc(C2=C(c3c[nH]c4ccccc34)C(=O)NC2=O)c2ccccc21 | 12.6
CCOc1cc2ncnc(Nc3cccc(Br)c3)c2cc1OCC | 98.6
Nc1[nH]nc2nnc(-c3c(-c4ccccc4)nn4ccccc34)cc12 | 99.7
O=c1cc(N2CCOCC2)oc2c1ccc1ccccc12 | 99.9
O=C(Nc1ccc(Cl)cc1)c1ccccc1NCc1ccncc1 | 93.3
Cn1cc(/C=C2\C(=O)Nc3ccc(S(N)(=O)=O)cc32)c2ccccc21 | 86.7

Study 3
Target: Synaptic vesicular amine transporter (SLC18A2, Homo sapiens, UniProt Q05940)
Chain of UniProt Q05940 (whole entry, looked up): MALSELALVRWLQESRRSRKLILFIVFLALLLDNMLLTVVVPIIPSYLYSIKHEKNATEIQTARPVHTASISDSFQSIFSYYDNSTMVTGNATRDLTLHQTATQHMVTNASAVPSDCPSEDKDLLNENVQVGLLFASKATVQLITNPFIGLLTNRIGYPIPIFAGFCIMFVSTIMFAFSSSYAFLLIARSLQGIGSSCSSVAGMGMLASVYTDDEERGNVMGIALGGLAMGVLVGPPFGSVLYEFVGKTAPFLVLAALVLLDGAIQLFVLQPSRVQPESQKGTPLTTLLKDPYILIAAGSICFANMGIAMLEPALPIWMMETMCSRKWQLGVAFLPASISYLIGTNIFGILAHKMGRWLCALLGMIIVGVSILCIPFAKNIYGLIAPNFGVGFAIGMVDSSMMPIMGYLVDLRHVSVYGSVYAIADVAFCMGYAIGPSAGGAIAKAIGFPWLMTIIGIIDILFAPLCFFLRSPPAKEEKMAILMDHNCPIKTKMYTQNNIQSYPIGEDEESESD
Mode: inhibitor
Notes: literature data
SMILES | IC50
N[C@@H]1c2cccnc2[C@H](OC(=O)N2CCC(n3c(=O)[nH]c4ncccc43)CC2)CC[C@H]1c1cccc(F)c1F | > 10 µM
OC(c1cc(C(F)(F)F)nc2c(C(F)(F)F)cccc12)C1CCCCN1 (stereo not shown) | 1.66 µM
CC[C@@H]([C@H](C)O)n1ncn(-c2ccc(N3CCN(c4ccc(OC[C@@H]5CO[C@@](Cn6cncn6)(c6ccc(F)cc6F)C5)cc4)CC3)cc2)c1=O | > 10 µM
C[C@H](NCc1ccc(OCc2cccc(F)c2)cc1)C(N)=O | > 10 µM
CC12CC3CC(C)(C1)CC(N)(C3)C2 | > 10 µM
COc1ccc(CC(C)(C)NC[C@H](O)c2cc(O)cc3c2OCC(=O)N3)cc1 | 1.43 µM
CCc1nc(C(N)=O)c(Nc2ccc(N3CCC(N4CCN(C)CC4)CC3)c(OC)c2)nc1NC1CCOCC1 | 1.71 µM
CC(=O)NC[C@H]1CN(c2ccc(N3CCOCC3)c(F)c2)C(=O)O1 | > 10 µM
CCC(C)n1ncn(-c2ccc(N3CCN(c4ccc(OCC5COC(Cn6cncn6)(c6ccc(Cl)cc6Cl)O5)cc4)CC3)cc2)c1=O (stereo not shown) | > 10 µM
N#CC[C@H](C1CCCC1)n1cc(-c2ncnc3[nH]ccc23)cn1 | > 10 µM
CCN(CC)CCOC(=O)c1ccc(N)cc1 | > 10 µM
CCCCN(CCCC)CCC(O)c1cc2c(Cl)cc(Cl)cc2c2cc(C(F)(F)F)ccc12 (stereo not shown) | 0.94 µM
Cc1nccn1CC1CCc2c(c3ccccc3n2C)C1=O (stereo not shown) | > 10 µM
Nc1ccn([C@@H]2CS[C@H](CO)O2)c(=O)n1 | > 10 µM

Study 4
Compound: C[C@@H]1CN(c2cc(-c3nn(C)c4ccc(OC5(C)CC5)cc34)ncn2)C[C@H](C)O1
Observed: cell-free assay
Method: competition with immobilised ligand
Tested at: 1 µM
target | remaining binding [%]
Mitogen-activated protein kinase 6 (MAPK6, Homo sapiens, UniProt Q16659) | 97
Membrane-associated tyrosine- and threonine-specific cdc2-inhibitory kinase (PKMYT1, Homo sapiens, UniProt Q99640) | 100
Leucine-rich repeat serine/threonine-protein kinase 2 (LRRK2, Homo sapiens, UniProt Q5S007, G2019S) | 36
Cyclin-dependent kinase 9 (CDK9, Homo sapiens, UniProt P50750) | 84
Macrophage colony-stimulating factor 1 receptor (CSF1R, Homo sapiens, UniProt P07333) | 100
Calcium/calmodulin-dependent protein kinase type 1B (PNCK, Homo sapiens, UniProt Q6P2M8) | 100
Casein kinase I isoform gamma-2 (CSNK1G2, Homo sapiens, UniProt P78368) | 100
Protein-tyrosine kinase 2-beta (PTK2B, Homo sapiens, UniProt Q14289) | 77
cAMP-dependent protein kinase catalytic subunit alpha (PRKACA, Homo sapiens, UniProt P17612) | 95
Cyclin-dependent kinase 7 (CDK7, Homo sapiens, UniProt P50613) | 100
Cyclin-dependent kinase 11B (CDK11B, Homo sapiens, UniProt P21127) | 88
Phosphatidylinositol 4,5-bisphosphate 3-kinase catalytic subunit alpha isoform (PIK3CA, Homo sapiens, UniProt P42336, E545K) | 79
Insulin-like growth factor 1 receptor (IGF1R, Homo sapiens, UniProt P08069) | 100
Activin receptor type-2B (ACVR2B, Homo sapiens, UniProt Q13705) | 98
Serine/threonine-protein kinase MRCK alpha (CDC42BPA, Homo sapiens, UniProt Q5VT25) | 89
SRSF protein kinase 3 (SRPK3, Homo sapiens, UniProt Q9UPE1) | 98
Receptor-type tyrosine-protein kinase FLT3 (FLT3, Homo sapiens, UniProt P36888, N841I) | 85
Ephrin type-B receptor 3 (EPHB3, Homo sapiens, UniProt P54753) | 100
Tyrosine-protein kinase JAK1, JH2 (JAK1, Homo sapiens, UniProt P23458) | 84

Repeated from above (study 4):
target | remaining binding [%]
Casein kinase I isoform gamma-2 (CSNK1G2, Homo sapiens, UniProt P78368) | 100
Protein-tyrosine kinase 2-beta (PTK2B, Homo sapiens, UniProt Q14289) | 77
cAMP-dependent protein kinase catalytic subunit alpha (PRKACA, Homo sapiens, UniProt P17612) | 95
Cyclin-dependent kinase 7 (CDK7, Homo sapiens, UniProt P50613) | 100
Cyclin-dependent kinase 11B (CDK11B, Homo sapiens, UniProt P21127) | 88
Phosphatidylinositol 4,5-bisphosphate 3-kinase catalytic subunit alpha isoform (PIK3CA, Homo sapiens, UniProt P42336, E545K) | 79
Insulin-like growth factor 1 receptor (IGF1R, Homo sapiens, UniProt P08069) | 100
Activin receptor type-2B (ACVR2B, Homo sapiens, UniProt Q13705) | 98
Serine/threonine-protein kinase MRCK alpha (CDC42BPA, Homo sapiens, UniProt Q5VT25) | 89
